Published values pooled from the literature.
Each line is one published result; not all experiments were run side by side. Numbers after ± are the reported error.
Cell line: MCF7

CCCCn1cc(C(=O)O)c(=O)c2cc(F)c3[nH]nnc3c21 — IC50 (cell growth, SRB; 72 h): 77 ± 11.8 µg/mL
CN1CCC2(CC1)C/C(=N\NC(=O)Nc1ccccc1)c1ccccc1O2 — IC50 (cell growth, MTT; 48 h): 1.67 ± 0.07 µM
O=C(CCCCCCC(=O)Nc1ccc(-[c-]2cccc2)cc1)NO.[Fe+2].c1cc[cH-]c1 — IC50 (cell growth or viability): 3.13 µM
CC1=[N+]2N=C(c3ccccc3)[O][Pd-2]2([Cl])[O+]=C2Oc3ccccc3C=C21 (stereo not drawn) — IC50 (cytotoxicity, MTT; 24 h): 19.5 ± 1.5 µM
CCCCn1cc(C(=O)O)c(=O)c2cc(F)c(N)c([N+](=O)[O-])c21 — IC50 (cell growth or viability, SRB): 390 µM
CCCCn1cc(C(=O)O)c(=O)c2cc(F)c(Nc3ccccc3OC)c([N+](=O)[O-])c21 — IC50 (cell growth or viability, SRB): 70.9 µM
COc1ccc(NC(=O)N/N=C2\CC3(CCN(C)CC3)Oc3ccccc32)cc1 — IC50 (cell growth, MTT; 48 h): 6.67 ± 0.28 µM
O=C(CCCCCCC(=O)Nc1ccccc1-[c-]1cccc1)NO.[Fe+2].c1cc[cH-]c1 — IC50 (cell growth or viability): 1.9 µM
CCCCn1cc(C(=O)O)c(=O)c2cc(F)c(Nc3cccc(OC)c3)c([N+](=O)[O-])c21 — IC50 (cell growth, SRB; 72 h): 52.8 ± 3.35 µg/mL
